Results pooled from the literature.
Protocols differ between the studies behind these lines. Several values in a cell are separate wells, animals, samples, runs or records. ± marks the error that the study gave.
ZAP70: Tyrosine-protein kinase ZAP-70 (ZAP70, Homo sapiens, UniProt P43403)
Sequence of UniProt P43403 (whole entry, looked up): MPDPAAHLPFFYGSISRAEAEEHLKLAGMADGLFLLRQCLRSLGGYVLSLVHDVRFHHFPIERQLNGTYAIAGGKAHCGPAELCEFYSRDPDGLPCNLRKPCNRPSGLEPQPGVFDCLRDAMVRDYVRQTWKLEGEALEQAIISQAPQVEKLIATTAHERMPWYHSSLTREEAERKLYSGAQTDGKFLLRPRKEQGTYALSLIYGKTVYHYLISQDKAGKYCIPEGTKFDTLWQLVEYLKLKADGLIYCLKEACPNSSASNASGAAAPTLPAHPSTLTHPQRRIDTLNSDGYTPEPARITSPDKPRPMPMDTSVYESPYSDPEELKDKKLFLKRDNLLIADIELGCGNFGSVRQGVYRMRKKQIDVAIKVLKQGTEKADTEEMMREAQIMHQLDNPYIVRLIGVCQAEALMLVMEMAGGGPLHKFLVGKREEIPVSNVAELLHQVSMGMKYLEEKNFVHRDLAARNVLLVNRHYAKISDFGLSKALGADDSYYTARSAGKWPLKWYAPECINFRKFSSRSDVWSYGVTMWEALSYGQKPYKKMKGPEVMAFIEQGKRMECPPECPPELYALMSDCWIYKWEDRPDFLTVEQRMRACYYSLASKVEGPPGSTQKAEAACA
MAP3K9: Mitogen-activated protein kinase kinase kinase 9 (MAP3K9, Homo sapiens, UniProt P80192)
Sequence of UniProt P80192 (whole entry, looked up): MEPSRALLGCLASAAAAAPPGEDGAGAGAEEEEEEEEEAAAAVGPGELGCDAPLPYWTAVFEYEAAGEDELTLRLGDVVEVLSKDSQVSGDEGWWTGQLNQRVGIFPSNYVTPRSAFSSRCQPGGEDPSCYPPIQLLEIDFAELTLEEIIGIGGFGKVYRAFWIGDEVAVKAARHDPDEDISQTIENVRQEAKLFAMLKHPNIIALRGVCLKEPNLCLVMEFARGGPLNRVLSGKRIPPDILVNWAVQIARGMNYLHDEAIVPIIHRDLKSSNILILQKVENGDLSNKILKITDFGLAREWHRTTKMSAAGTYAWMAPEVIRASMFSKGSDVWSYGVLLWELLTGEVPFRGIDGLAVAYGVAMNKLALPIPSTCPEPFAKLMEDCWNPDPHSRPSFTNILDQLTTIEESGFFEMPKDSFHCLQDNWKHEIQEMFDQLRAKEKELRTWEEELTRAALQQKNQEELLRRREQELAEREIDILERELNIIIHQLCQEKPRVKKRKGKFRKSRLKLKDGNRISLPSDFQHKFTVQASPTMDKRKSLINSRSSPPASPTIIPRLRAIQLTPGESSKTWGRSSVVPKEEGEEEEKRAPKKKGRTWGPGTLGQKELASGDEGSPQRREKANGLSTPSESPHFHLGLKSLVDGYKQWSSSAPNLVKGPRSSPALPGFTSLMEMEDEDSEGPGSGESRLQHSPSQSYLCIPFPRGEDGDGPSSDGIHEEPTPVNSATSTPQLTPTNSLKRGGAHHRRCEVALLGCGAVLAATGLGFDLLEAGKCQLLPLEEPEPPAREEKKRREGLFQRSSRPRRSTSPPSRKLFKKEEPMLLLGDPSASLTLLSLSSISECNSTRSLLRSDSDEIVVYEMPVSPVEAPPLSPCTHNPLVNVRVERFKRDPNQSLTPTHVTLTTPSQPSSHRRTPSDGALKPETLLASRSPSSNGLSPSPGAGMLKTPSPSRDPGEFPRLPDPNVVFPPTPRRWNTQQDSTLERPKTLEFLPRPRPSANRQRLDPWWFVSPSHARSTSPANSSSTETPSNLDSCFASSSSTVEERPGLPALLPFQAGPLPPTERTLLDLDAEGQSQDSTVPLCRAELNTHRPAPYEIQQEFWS
PKN3: Serine/threonine-protein kinase N3 (PKN3, Homo sapiens, UniProt Q6P5Z2)
Sequence of UniProt P11678 (whole entry, looked up): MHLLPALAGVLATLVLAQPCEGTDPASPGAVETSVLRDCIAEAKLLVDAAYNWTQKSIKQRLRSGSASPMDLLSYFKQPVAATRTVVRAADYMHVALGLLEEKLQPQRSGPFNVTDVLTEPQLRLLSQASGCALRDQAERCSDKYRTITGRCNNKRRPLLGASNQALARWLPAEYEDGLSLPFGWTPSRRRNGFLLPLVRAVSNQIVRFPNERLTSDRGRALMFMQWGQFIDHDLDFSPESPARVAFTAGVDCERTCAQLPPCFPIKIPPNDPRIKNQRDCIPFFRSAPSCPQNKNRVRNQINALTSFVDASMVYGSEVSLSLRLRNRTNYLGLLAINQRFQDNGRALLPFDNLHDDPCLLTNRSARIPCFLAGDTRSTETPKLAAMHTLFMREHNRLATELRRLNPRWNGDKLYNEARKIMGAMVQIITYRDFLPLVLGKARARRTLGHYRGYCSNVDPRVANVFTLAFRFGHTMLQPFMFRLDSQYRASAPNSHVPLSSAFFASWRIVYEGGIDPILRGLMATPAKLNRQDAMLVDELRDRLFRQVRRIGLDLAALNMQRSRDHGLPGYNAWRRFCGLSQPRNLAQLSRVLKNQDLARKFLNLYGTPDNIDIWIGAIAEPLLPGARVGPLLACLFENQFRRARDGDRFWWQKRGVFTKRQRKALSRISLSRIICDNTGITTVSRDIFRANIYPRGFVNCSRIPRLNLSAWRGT
Sequence of UniProt Q6P5Z2 (whole entry, looked up): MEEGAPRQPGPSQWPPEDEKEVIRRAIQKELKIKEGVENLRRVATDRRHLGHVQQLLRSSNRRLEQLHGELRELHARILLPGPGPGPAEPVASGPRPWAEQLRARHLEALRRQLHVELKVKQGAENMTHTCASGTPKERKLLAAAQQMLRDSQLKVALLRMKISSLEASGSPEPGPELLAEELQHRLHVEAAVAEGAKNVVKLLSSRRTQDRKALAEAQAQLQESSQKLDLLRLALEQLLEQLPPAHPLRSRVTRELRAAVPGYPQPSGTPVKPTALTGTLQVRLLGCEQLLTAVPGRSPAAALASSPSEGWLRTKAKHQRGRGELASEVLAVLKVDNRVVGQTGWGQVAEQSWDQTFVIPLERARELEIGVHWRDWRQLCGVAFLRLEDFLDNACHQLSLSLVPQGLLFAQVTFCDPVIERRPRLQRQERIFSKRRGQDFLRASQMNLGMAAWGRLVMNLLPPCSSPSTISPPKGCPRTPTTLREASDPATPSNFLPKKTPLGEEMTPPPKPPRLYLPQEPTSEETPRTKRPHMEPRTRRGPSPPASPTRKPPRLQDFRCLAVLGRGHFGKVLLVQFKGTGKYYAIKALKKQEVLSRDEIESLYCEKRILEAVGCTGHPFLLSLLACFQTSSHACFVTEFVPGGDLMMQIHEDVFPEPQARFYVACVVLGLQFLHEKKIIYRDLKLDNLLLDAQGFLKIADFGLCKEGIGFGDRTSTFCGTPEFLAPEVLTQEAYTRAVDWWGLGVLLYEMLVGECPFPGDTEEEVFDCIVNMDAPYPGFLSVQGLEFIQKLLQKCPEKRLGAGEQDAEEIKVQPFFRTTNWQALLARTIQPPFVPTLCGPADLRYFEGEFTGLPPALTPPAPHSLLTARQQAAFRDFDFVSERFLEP
Sequence of UniProt Q02763 (whole entry, looked up): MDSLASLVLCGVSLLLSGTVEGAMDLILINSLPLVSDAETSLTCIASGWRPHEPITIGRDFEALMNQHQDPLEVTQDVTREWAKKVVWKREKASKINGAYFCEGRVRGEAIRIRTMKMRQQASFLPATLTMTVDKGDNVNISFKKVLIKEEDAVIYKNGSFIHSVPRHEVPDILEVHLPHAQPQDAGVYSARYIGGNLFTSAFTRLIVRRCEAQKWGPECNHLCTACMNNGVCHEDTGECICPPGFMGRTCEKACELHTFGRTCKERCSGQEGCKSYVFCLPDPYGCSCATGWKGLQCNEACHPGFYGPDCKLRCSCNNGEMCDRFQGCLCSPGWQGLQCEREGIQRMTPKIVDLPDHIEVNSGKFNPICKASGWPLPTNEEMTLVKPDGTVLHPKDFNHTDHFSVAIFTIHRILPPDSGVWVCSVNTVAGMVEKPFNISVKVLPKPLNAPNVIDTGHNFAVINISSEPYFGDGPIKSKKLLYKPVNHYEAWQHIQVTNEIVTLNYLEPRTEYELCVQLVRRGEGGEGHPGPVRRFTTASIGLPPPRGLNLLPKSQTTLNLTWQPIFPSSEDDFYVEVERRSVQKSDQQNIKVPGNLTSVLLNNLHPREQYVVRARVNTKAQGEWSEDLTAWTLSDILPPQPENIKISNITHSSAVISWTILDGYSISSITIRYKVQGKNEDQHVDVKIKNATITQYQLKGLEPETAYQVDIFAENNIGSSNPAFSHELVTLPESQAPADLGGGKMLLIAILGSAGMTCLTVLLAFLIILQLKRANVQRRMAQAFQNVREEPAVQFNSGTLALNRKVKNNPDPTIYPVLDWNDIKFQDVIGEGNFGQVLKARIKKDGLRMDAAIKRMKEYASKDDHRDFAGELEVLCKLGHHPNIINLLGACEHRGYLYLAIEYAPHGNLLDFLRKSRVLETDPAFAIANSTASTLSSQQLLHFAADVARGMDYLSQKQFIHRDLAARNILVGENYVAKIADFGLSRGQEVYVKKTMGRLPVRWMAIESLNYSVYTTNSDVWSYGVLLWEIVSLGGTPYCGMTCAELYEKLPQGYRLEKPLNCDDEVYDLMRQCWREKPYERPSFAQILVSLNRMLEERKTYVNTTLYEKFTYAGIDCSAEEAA

COc1cc(-c2cncc3c2CN(C)Cc2cc(N4CCNCC4)ccc2-3)cc(OC)c1OC  remaining activity (TEK (Homo sapiens, UniProt Q02763); kinase activity; 1 µM, together with: ATP 10 µM; reference: DMSO control): 94%
C=CC(=O)N1CCC[C@@H](n2nc(-c3ccc(Oc4ccccc4)cc3)c3c(N)ncnc32)C1  remaining activity (ZAP70; 0.1 µM): 311%
O=C(NC1CCC1)c1ccc2nc(-c3cccc(NS(=O)(=O)NCCN4CCCCC4)c3)cn2c1  remaining activity (MAP3K9; enzyme activity; 10 µM): 100%
Cc1cc(Nc2cc(N3CCN(C)CC3)nc(Sc3ccc(NC(=O)C4CC4)cc3)n2)[nH]n1  remaining activity (MAP3K9; kinase activity, KinaseProfiler; 0.03 µM, species human; reference: control): 70%
COc1c(O[C@@H]2O[C@H](CO)[C@@H](O)[C@H](O)[C@H]2O)c(C)cc2c1C(=O)c1c(O)cccc1C2=O  cell viability (HK-2 co-cultured with HepaRG; MTT; 16.67 µM, 48 h; reference: untreated control): 86.5 ± 6.03%
COc1cc(Nc2ncc3c(n2)-c2ccc(Cl)cc2C(c2c(F)cccc2OC)=NC3)ccc1C(=O)O  remaining activity (PRKCZ; kinase activity; 1 µM): 106%
COc1ccc(F)cc1C(=O)NCc1ccc(-c2nn([C@@H](C)C(F)(F)F)c(N)c2C(N)=O)cc1  remaining activity (PKN3; kinase activity, inhibitor, HotSpot radiometric; 100 nM, together with: ATP 10 µM): 84.5 ± 1.6%
O=C1NC(=O)/C(=C/c2ccc(-c3ccc(F)cc3O)o2)S1  remaining activity (IKBKE (Homo sapiens, UniProt Q14164); enzyme activity; 10 µM): 40%
COc1cc(F)ccc1-c1ncnc(Nc2cccc(C[S@](C)(=N)=O)c2)n1  remaining activity (ZAP70; kinase activity; 10 µM, together with: 10 µM ATP): 98%
CC(=O)c1c(C)cc2cc(O)cc(O[C@@H]3O[C@H](CO)[C@@H](O)[C@H](O)[C@H]3O)c2c1O  cell viability (HK-2 co-cultured with HepaRG; MTT; 66.67 µM, 48 h; reference: untreated control): 98.4 ± 3.92%
CC#CC(=O)N1CCC[C@H]1c1nc(-c2ccc(C(=O)Nc3ccccn3)cc2)c2c(N)nccn12  remaining activity (PKN3; kinase activity, inhibitor, HotSpot radiometric; 100 nM, together with: ATP 10 µM): 98.2 ± 1.1%
O=C(O)c1ccc(Nc2ncc3c(n2)-c2ccc(Cl)cc2C(c2c(F)cccc2F)=NC3)cc1  remaining activity (PKCη(h); kinase activity; 1 µM): 120%
NC/C(=C\F)COc1cccc(Cn2c(=S)[nH]c(=O)c3[nH]cnc32)c1  remaining activity (Eosinophil peroxidase (Homo sapiens, UniProt P11678); H2O2 electrode; 5 µM; reference: control): 158% and 164% and 126%

Some of these lines once more:
C=CC(=O)N1CCC[C@@H](n2nc(-c3ccc(Oc4ccccc4)cc3)c3c(N)ncnc32)C1  remaining activity (ZAP70; 0.1 µM): 311%
